Measured values gathered from unrelated publications.
A part holds a random share of what one study measured.
Chain of UniProt Q13873 (whole entry, looked up): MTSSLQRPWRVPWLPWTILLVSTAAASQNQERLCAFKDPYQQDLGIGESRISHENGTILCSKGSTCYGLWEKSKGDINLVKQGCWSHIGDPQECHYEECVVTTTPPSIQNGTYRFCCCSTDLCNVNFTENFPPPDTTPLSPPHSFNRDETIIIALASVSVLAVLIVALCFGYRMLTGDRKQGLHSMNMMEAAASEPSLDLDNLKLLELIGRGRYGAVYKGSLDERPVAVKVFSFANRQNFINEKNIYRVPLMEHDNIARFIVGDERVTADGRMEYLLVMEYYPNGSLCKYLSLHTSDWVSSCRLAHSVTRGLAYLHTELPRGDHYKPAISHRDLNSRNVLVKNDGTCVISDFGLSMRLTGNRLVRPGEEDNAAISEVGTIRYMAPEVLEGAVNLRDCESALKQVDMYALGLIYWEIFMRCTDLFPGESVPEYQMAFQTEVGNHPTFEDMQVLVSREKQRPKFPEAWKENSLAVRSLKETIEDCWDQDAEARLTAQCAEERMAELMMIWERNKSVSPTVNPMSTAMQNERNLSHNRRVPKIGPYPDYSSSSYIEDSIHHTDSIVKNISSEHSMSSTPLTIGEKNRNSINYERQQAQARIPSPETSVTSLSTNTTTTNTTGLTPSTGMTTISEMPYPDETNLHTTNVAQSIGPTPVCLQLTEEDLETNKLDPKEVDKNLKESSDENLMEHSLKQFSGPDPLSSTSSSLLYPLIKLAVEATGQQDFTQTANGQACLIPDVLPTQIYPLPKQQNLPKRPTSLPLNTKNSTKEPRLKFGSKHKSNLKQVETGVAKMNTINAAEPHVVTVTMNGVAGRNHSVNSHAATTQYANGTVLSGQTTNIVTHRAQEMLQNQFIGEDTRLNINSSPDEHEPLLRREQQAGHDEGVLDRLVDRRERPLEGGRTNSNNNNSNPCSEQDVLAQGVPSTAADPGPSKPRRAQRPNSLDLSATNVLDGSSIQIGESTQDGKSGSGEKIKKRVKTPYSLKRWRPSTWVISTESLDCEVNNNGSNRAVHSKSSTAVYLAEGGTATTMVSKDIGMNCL
Chain of UniProt O94804 (whole entry, looked up): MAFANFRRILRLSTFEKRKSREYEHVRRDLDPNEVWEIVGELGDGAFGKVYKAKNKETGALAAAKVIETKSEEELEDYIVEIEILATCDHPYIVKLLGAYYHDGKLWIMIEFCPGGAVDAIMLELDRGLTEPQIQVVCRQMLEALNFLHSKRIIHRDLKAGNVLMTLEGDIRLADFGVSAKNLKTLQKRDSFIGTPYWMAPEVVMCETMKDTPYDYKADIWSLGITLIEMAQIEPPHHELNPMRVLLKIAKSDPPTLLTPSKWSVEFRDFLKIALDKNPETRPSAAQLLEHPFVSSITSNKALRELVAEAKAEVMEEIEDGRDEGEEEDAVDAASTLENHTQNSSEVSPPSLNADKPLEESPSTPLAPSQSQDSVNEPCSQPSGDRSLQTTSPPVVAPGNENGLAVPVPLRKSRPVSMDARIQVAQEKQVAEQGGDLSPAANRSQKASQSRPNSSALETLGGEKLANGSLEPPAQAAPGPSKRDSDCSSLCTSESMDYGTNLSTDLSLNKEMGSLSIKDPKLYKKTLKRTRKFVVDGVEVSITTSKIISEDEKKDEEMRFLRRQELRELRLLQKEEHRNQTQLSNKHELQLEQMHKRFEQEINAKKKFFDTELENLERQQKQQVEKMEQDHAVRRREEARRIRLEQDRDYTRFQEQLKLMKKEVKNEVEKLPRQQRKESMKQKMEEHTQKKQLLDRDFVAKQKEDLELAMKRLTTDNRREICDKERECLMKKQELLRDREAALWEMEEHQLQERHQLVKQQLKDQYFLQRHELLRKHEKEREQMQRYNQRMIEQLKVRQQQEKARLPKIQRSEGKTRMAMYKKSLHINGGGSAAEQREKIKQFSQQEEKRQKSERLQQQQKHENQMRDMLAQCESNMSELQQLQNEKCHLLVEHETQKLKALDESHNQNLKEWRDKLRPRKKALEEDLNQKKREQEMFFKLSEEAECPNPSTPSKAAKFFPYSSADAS
Chain of UniProt P21127 (whole entry, looked up): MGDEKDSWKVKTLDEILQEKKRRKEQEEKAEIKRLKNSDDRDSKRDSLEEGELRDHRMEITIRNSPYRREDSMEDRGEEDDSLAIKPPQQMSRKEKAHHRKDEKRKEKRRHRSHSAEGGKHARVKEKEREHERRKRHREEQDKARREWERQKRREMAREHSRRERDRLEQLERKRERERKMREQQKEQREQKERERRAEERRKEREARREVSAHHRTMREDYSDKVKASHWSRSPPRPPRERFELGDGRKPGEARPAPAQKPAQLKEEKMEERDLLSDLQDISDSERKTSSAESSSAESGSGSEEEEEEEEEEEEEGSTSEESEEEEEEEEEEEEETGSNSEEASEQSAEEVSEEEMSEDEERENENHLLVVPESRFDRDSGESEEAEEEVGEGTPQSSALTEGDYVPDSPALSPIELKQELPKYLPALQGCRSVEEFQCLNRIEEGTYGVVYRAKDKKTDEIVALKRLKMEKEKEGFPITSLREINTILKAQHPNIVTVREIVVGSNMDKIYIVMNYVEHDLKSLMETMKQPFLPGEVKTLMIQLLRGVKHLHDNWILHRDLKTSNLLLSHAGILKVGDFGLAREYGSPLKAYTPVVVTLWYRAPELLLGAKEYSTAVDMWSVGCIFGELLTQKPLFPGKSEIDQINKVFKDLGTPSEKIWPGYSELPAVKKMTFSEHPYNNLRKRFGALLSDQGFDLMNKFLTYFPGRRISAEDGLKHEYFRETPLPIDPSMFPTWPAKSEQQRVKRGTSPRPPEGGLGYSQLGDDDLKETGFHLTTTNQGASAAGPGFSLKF
Chain of UniProt P36896 (whole entry, looked up): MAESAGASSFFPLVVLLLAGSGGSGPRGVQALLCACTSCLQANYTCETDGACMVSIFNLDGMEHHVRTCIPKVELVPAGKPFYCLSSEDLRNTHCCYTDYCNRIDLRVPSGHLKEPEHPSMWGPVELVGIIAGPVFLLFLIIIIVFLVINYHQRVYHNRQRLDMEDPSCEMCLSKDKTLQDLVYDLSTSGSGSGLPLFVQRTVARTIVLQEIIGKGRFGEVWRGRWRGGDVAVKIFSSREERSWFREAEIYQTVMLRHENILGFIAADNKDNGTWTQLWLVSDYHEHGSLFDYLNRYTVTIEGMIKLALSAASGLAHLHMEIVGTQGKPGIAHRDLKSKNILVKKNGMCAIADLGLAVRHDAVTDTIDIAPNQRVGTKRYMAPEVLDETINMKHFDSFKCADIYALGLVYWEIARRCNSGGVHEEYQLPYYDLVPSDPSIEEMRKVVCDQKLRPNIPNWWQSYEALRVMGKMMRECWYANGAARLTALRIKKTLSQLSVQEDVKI
Chain of UniProt Q99759 (whole entry, looked up): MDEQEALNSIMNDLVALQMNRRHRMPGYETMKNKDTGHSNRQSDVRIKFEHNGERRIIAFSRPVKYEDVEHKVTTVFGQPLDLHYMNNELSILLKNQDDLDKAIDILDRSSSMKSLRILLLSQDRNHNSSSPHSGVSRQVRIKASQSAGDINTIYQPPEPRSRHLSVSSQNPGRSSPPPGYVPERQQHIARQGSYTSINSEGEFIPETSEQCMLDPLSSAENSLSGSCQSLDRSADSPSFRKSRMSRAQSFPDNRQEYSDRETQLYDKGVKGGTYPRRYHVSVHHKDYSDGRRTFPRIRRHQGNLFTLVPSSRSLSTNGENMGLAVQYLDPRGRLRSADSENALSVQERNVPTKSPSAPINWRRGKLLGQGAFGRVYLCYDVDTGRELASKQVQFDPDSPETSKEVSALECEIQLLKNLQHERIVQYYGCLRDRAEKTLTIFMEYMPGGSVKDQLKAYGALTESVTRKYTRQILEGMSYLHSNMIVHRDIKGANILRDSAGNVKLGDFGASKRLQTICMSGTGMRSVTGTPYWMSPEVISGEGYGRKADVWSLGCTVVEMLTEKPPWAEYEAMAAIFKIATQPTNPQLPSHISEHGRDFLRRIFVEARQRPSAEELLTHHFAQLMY
Chain of UniProt Q07002 (whole entry, looked up): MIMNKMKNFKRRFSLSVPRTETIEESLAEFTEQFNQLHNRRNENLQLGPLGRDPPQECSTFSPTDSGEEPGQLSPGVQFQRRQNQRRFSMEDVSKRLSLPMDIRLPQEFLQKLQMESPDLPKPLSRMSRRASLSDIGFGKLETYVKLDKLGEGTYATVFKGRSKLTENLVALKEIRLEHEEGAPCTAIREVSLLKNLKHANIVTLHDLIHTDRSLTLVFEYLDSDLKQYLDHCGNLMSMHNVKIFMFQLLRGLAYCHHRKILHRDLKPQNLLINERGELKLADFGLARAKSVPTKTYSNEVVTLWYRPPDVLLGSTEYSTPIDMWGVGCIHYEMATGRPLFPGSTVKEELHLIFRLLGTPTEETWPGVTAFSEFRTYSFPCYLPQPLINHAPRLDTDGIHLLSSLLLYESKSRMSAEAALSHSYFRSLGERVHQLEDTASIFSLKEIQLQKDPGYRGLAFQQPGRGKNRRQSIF

Sample 1
Compound: CC(C)n1cnc(-c2ccc(F)cc2)c1-c1ncc(C(=O)Nc2ccc(N3CCN(C)CC3)cc2)[nH]1
Method: phase 2a trial
Species: idiopathic pulmonary fibrosis patients
conditions | patients with headache
30 mg once daily, grade 1 emergent event | 0%
60 mg once daily, grade 4 emergent event | 0%
all arms pooled, grade 3 emergent event | 0%
all arms pooled, grade 2 emergent event | 0%
all arms pooled, grade 5 emergent event | 0%
30 mg once daily, grade 3 emergent event | 0%

Sample 2
Structure (SMILES): CN1CCN(C(=O)c2ccc(NC(=O)Nc3ccc(N(C)c4ccnc(Nc5ccc(CS(C)(=O)=O)cc5)n4)cc3)cc2)CC1
Effect on: binding
Tested at: 1 µM
target | test | remaining binding [%]
LTK (Homo sapiens, UniProt P29376) |  | 85
CDK18 (Homo sapiens, UniProt Q07002) |  | 96
FGFR4 (Homo sapiens, UniProt P22455) |  | 100
BMPR2 (Homo sapiens, UniProt Q13873) |  | 56
CAMKK2 (Homo sapiens, UniProt Q96RR4) |  | 100
RAF1 (Homo sapiens, UniProt P04049) | competition with immobilised ligand | 90
SRC (Homo sapiens, UniProt P12931) | competition with immobilised ligand | 100
CDK11B (Homo sapiens, UniProt P21127) | competition with immobilised ligand | 67
EPHA6 (Homo sapiens, UniProt Q9UF33) | competition with immobilised ligand | 76
MAPK8 (Homo sapiens, UniProt P45983) |  | 5.5
Ribosomal protein S6 kinase alpha-6, C-terminal kinase domain (RPS6KA6, Homo sapiens, UniProt Q9UK32) | competition with immobilised ligand | 84

Sample 3
Target: Ribosomal protein S6 kinase beta-2 (RPS6KB2, Homo sapiens, UniProt Q9UBS0)
Chain of UniProt Q9UBS0 (whole entry, looked up): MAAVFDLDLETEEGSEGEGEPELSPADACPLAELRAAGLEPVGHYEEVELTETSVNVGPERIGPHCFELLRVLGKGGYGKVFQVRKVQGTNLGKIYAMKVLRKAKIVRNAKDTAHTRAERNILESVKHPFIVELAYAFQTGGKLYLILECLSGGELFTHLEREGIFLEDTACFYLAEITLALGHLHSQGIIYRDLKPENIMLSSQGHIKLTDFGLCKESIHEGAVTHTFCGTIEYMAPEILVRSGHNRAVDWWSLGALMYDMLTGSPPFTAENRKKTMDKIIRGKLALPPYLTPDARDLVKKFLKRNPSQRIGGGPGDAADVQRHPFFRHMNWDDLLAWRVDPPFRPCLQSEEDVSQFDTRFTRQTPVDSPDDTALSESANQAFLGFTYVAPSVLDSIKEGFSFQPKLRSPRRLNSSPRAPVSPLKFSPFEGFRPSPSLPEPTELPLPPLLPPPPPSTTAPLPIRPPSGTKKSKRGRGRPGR
Effect on: enzyme activity
Mode: inhibitor
Tested at: 0.5 µM
Relative to: control
Structure (SMILES) | remaining activity
Ic1cccc(CSc2nnc(-c3ccncc3)o2)c1 | 103%
COc1cc2c(cc1OC)-c1[nH]nc(Nc3cccc(F)c3)c1C2 | 100%
COc1cc2ncnc(Nc3cccc(Cl)c3)c2cc1OC | 105%
O=C1C(Cl)=C(N2C(=O)CCC2=O)C(=O)c2ccccc21 | 102%
CCN(CC)CCNC(=O)c1c(C)[nH]c(/C=C2\C(=O)Nc3ccc(F)cc32)c1C | 113%
Cc1cn(-c2cc(NC(=O)c3ccc(C)c(Nc4nccc(-c5cccnc5)n4)c3)cc(C(F)(F)F)c2)cn1 | 100%
CN(C)C[C@H]1CCn2c(c(C3=C(c4cn(C)c5ccccc45)C(=O)NC3=O)c3ccccc32)C1 | 67.6%
CCN(CC)CCNC(=O)c1c(C)[nH]c(/C=C2\C(=O)Nc3ccc(Cl)cc32)c1C | 91.6%
O=C(NC(NC(=S)Nc1ccc(F)c([N+](=O)[O-])c1)C(Cl)(Cl)Cl)C(c1ccccc1)c1ccccc1 (stereo not shown) | 99.3%
c1ccc(-c2[nH]ncc2-c2ccnc3ccccc23)nc1 | 101%
Cc1cc2ncc(-c3ccccc3)nc2cc1C | 98.7%
Cc1nc2cc3nc(-c4cccs4)cnc3cc2n1C | 98%
O=c1cc(-c2cccc3c2Sc2ccccc2S3)oc(N2CCOCC2)c1 | 102%
CCN(CC)C(=O)c1ccc(Nc2nc(OCC3CCCCC3)c3[nH]cnc3n2)cc1 | 102%
N#C/C(=C\c1ccc(O)c(O)c1)C(=O)NCc1ccccc1 | 94.7%
COc1cc2ncnc(Nc3ccc(O)c(Br)c3)c2cc1OC | 102%
c1ccc(-c2cnc(Nc3ccc(OCCN4CCCC4)cc3)s2)cc1 | 92.7%
Nc1cccc(-c2cc3c(Oc4cccc(O)c4)ncnc3[nH]2)c1 | 94.7%
CCOc1nc(NC(=O)Cc2cc(OC)ccc2OC)cc(N)c1C#N | 96%
Cn1nc2c3c(cccc31)C(=O)c1ccccc1-2 | 94.7%
O=C1c2ccccc2-c2n[nH]c3cccc1c23 | 108%
CN([C@@H](Cc1ccc(OS(=O)(=O)c2cccc3cnccc23)cc1)C(=O)N1CCN(c2ccccc2)CC1)S(=O)(=O)c1cccc2cnccc12 | 96.6%
O=C(Nc1cccc(Nc2nccc(Nc3cccc(C(F)(F)F)c3)n2)c1)C1CC1 | 96%
N#Cc1c(NC(=O)c2cccc3ccccc23)sc2c1CCCC2 | 100%
C[C@@H]1CCN(C(=O)CC#N)C[C@@H]1N(C)c1ncnc2[nH]ccc12 | 100%

Sample 4
Compound: CCc1ccccc1C(=O)Nc1n[nH]c2c(C)c(F)c(C3C(C#N)=C(C)N(C)C(C)=C3C#N)cc12
Method: competition with immobilised ligand
Tested at: 1 µM
target | test | remaining binding [%]
EGFR (Homo sapiens, UniProt P00533, del747-750/T751S) | cell-free assay | 29
CDK17 (Homo sapiens, UniProt Q00537) | cell-free assay | 93
MET (Homo sapiens, UniProt P08581, M1250T) | cell-free assay | 25
SBK1 (Homo sapiens, UniProt Q52WX2) | cell-free assay | 100
MAP3K1 (Homo sapiens, UniProt Q13233) | cell-free assay | 100
SIK2 (Homo sapiens, UniProt Q9H0K1) | cell-free assay | 69
CDKL1 (Homo sapiens, UniProt Q00532) | binding | 87
MAP3K19 (Homo sapiens, UniProt Q56UN5) | cell-free assay | 74
MAP3K15 (Homo sapiens, UniProt Q6ZN16) | cell-free assay | 96
FLT3 (Homo sapiens, UniProt P36888, D835H) | cell-free assay | 16
STK10 (Homo sapiens, UniProt O94804) | cell-free assay | 100
TAOK3 (Homo sapiens, UniProt Q9H2K8) | cell-free assay | 38
EGFR (Homo sapiens, UniProt P00533, L858R) | cell-free assay | 93
MAP3K3 (Homo sapiens, UniProt Q99759) | cell-free assay | 100
WNK3 (Homo sapiens, UniProt Q9BYP7) | cell-free assay | 90
MELK (Homo sapiens, UniProt Q14680) | cell-free assay | 43
BMPR2 (Homo sapiens, UniProt Q13873) | cell-free assay | 100
NEK5 (Homo sapiens, UniProt Q6P3R8) | cell-free assay | 100
NEK3 (Homo sapiens, UniProt P51956) | cell-free assay | 100
FLT3 (Homo sapiens, UniProt P36888, D835V/ITD) | cell-free assay | 12
EPHA8 (Homo sapiens, UniProt P29322) | cell-free assay | 79
ACVR1B (Homo sapiens, UniProt P36896) | cell-free assay | 100
FGFR1 (Homo sapiens, UniProt P11362) | cell-free assay | 97
EGFR (Homo sapiens, UniProt P00533, del746-750) | cell-free assay | 62
MARK4 (Homo sapiens, UniProt Q96L34) | cell-free assay | 51

For quick reference, copied from above (sample 2):
target | test | remaining binding [%]
CDK18 (Homo sapiens, UniProt Q07002) |  | 96
FGFR4 (Homo sapiens, UniProt P22455) |  | 100
BMPR2 (Homo sapiens, UniProt Q13873) |  | 56
CAMKK2 (Homo sapiens, UniProt Q96RR4) |  | 100
RAF1 (Homo sapiens, UniProt P04049) | competition with immobilised ligand | 90
SRC (Homo sapiens, UniProt P12931) | competition with immobilised ligand | 100
CDK11B (Homo sapiens, UniProt P21127) | competition with immobilised ligand | 67
EPHA6 (Homo sapiens, UniProt Q9UF33) | competition with immobilised ligand | 76
MAPK8 (Homo sapiens, UniProt P45983) |  | 5.5
